Measured values from different studies.
Parts stem from different laboratories: compare values within a part only. Changes are numbered by the printed parent chain.

Series 1
Target: Sal-like protein 4, full length isoform A (SALL4, Homo sapiens, UniProt Q9UJQ4, residues 1-1053)
Chain of UniProt Q9UJQ4 (whole entry, looked up): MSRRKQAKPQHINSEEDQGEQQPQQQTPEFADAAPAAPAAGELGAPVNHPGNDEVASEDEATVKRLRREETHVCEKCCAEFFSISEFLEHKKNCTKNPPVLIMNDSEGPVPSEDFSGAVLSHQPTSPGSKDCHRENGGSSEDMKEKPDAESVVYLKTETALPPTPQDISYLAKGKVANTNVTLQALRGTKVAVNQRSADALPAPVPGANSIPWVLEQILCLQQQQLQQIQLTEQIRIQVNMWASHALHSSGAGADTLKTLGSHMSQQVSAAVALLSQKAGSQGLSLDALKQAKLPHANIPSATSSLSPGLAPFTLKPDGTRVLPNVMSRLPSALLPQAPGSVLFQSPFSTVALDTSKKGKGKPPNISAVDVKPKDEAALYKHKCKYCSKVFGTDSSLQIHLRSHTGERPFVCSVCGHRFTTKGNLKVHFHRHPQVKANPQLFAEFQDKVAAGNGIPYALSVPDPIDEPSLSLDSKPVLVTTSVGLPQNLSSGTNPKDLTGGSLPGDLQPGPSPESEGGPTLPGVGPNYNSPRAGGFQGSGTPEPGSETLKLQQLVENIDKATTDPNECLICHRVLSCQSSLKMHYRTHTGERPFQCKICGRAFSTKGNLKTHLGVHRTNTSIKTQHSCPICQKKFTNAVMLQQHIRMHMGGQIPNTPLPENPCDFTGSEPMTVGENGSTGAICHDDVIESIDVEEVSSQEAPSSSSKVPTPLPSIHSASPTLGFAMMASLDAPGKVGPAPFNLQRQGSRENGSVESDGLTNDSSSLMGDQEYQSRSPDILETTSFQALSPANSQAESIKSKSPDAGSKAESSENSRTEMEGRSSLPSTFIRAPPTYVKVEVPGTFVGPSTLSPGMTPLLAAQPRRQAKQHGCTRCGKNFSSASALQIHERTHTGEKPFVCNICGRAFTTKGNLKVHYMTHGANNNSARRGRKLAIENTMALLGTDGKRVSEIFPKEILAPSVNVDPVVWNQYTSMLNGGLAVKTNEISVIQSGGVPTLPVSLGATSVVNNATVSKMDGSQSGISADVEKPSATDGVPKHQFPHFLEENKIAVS
Method: universal PBM
Molecule type: double-stranded DNA, one strand shown
Matrix: in vitro
Tested at: 600 nM
Setting: 8-mer, flanks averaged, mean of replicates
Reading: higher = stronger binding
`CGTGACTC` gave an E-score of -0.178.
`AAGGGCAC` has an E-score of -0.21.
The E-score of `CGCTATCC` is reported as -0.106.
The E-score of `CCGTGAGC` is reported as -0.361.
`ACTAGCCG` gave an E-score of -0.241.
With `ACCGGCCT` the E-score was -0.327.
The E-score of `CCGCCGCC` is reported as -0.421.
With `TGCTCCAA` the E-score was -0.0264.
`ACAGGGTA` gave an E-score of -0.0636.
`CAGGTCCA` has an E-score of -0.115.

Series 2
Target: CCND2, cyclin fold, Cln2 fusion (human)
Method: yeast growth competition, sequencing
Matrix: yeast
Setting: weak parent motif
Reference: not given
Reading: higher = stronger binding
Starting sequence: PKMYT1 docking peptide (human); SFEPRNLLSLFED
`N6G`: “normalised enrichment score” 0.361.
`N6A`: “normalised enrichment score” 0.445.
For `F2A`, “normalised enrichment score” read -0.0716.
`F2P` — result for “normalised enrichment score”: 0.0907.
For `S9F`, “normalised enrichment score” read 0.298.
Under “normalised enrichment score”, `P4F` is recorded as 0.0533.
Under “normalised enrichment score”, `L8N` is recorded as 0.165.
Under “normalised enrichment score”, `L7R` is recorded as 0.00921.

Series 3
Target: RING finger protein unkempt homolog, zinc fingers 1-6, SBP tag (UNK, Homo sapiens, UniProt Q9C0B0, residues 30-357)
Chain of UniProt Q9C0B0 (30-357, looked up): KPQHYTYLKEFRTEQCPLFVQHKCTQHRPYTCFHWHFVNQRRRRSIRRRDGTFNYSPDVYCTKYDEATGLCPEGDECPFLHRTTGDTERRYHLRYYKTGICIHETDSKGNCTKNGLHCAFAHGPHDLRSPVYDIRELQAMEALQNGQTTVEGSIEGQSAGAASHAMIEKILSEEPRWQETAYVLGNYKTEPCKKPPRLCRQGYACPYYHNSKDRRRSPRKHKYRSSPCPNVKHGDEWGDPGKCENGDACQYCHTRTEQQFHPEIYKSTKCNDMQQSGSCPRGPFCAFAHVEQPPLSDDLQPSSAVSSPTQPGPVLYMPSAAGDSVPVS
Method: RNA Bind-n-Seq
Molecule type: RNA
Matrix: in vitro
Tested at: 100 nM
Setting: RNA with constant flanks, vertebrate orthologous sites, ends assumed
Reference: input RNA pool
Reading: higher = stronger binding
For `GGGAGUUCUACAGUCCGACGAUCUUCCAGCACAACUGACUGGACCCCGGCAUUCUUUGCAUGGUUACCUGUCAAACACAAGUCUAGUUAAUUUUCAGGAAACAACCAGGCAGCCAUCUUUAUCUUGUAGCCCGGCUGGAGAUUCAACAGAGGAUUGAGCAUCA`, the bound/input enrichment was 0.296 ratio.
With `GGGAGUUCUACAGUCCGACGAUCCCUACAAUAAUGAAGCCCGACAGGAAUUUUUUUAUUUUCCAUUUCCCCUCUAGGCAUCCUUCGUCUCUUUUCCCCAGGGGCAUCACUCAGAGCGUGCGUGCGUGCGUGUGCACAUGUUUCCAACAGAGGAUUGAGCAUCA` the bound/input enrichment was 0.316 ratio.
`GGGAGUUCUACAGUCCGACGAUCUAUUCAAAAUCUAAAUAAAUUGCUCUGAAGUCAGAAAGUUCAUUUUGGAGGAUCUGACCAUAGGCAGGUGUUGCCAUAUUGUUUUGUUCUGUUUUUUAAACUUGUGUGCUAUGUCCAGAGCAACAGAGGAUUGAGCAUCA` has a bound/input enrichment of 0.333 ratio.
`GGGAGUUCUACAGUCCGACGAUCUUUUUUUUUUUGCACAUGACAGUGUUUGUAUUGAGGAUCUUCCAAGGAAGAGGGGUGCUGUAGCAGUGGUGCCUGGGUACCUGGCCCUCCAGUGUCCCACCUCCUUCACCACCCCGCUUGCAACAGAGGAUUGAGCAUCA` has a bound/input enrichment of 0.243 ratio.
`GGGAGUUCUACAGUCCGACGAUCAUCACCUAGUUAGGGGUAACCAUUAAUUUAUUUUAAUAAAGGAGAUGCUGAAAGUCCUAUUAGUACUGAGUUUAGUUGGAGAACUGAGAUAAGGAUCUUUGAGGUAAUUCUAAAAUUCAACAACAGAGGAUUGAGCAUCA` has a bound/input enrichment of 0.785 ratio.
The bound/input enrichment of `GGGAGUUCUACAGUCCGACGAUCUCCUCAACGUGUUCUAGCUUGUGAUCCUUCAAAGUUGGGUCAUGCGUUAUUGCUAGAUAGUAGAAGUUUUCACUUCUCUCCUUCCACUGAUCAGAGAAACAGACAUUAAAAACAGGAAUACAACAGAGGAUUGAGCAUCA` is reported as 0.573 ratio.
For `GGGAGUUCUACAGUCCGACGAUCAUGUGAAAAUCAUGUCUCUCAAUUGGAAAGGAAGGAGGAAAAGGUAGAUUGUAUCUACCACAGUGCAAUAGGCACAUAUUUGGUCUAAUAUUGAUGUUGCUAUUGUGACAUGCAAAUAUACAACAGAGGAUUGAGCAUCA`, the bound/input enrichment was 0.624 ratio.
The bound/input enrichment of `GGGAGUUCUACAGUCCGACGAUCAUCUCUCAUUUUCUAUGUCCAAAAAAGGUUUUGAAUUUUUAAAUAAUUGCUAGUUUUGAUUAGCUUUGCCCUCAUGAAGUAUUAUUAUAAUCCCCACAAACAGAUAUCUGUCUGAAUUACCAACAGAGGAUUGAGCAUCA` is reported as 0.815 ratio.
With `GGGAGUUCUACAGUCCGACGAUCAAGUAUCCCCGUUUACUGUGUUGAGUUGGCACUGUACAGAAAUUAACAGCCAUAUUGGUCUAGAAAUGUUGAACUUAAGUUUUUUCCAUUUGUACAGGGGUAACGCACUGUAUUAAAUAUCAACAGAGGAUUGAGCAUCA` the bound/input enrichment was 0.349 ratio.
`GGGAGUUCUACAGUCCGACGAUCUGUUCAGCCUCUUUUAGGGAAGAGAUAAACUAGAGGGGAACUCUCUCCUUUUUUAUAAAUUAGCUCAUUUCUAAAUUAUGACCAAAAAAUAUUUUGCUAUUUCUUUCUUUAUAUGUGCACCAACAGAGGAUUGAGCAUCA` gave a bound/input enrichment of 1.27 ratio.
The bound/input enrichment of `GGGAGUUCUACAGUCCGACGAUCUUUGUGGGGAUCGGGGGGUGGGAAGAAGAUGUAUGGAUGUUAUUGGCAUUUUUAAGUGUUCAGAGUUUUUCUUUUUCCUCCUGUUUUGUUUUUUCCCUUUAAUUGGAUGCACUGACCUGGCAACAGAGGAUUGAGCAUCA` is reported as 0.46 ratio.

Other studies, line by line
The fold induction of `PhoQ, residues 284 288 289 292 302 303 SLSVQF` is reported as 13.6 (PhoP, residues 12 14 15 18 19 VQALL (Escherichia coli, UniProt P23836); Sort-seq, item: YFP reporter; E. coli; PhoQ-PhoP variant library, together with: 10 µM Mg2+; reference: high Mg2+ state, higher = stronger signaling).

Excerpt of the above (series 3):
For `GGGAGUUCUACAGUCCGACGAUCUUCCAGCACAACUGACUGGACCCCGGCAUUCUUUGCAUGGUUACCUGUCAAACACAAGUCUAGUUAAUUUUCAGGAAACAACCAGGCAGCCAUCUUUAUCUUGUAGCCCGGCUGGAGAUUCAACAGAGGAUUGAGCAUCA`, the bound/input enrichment was 0.296 ratio.
With `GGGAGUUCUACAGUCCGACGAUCAAGUAUCCCCGUUUACUGUGUUGAGUUGGCACUGUACAGAAAUUAACAGCCAUAUUGGUCUAGAAAUGUUGAACUUAAGUUUUUUCCAUUUGUACAGGGGUAACGCACUGUAUUAAAUAUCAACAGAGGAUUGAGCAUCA` the bound/input enrichment was 0.349 ratio.
`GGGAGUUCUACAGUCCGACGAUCAUCACCUAGUUAGGGGUAACCAUUAAUUUAUUUUAAUAAAGGAGAUGCUGAAAGUCCUAUUAGUACUGAGUUUAGUUGGAGAACUGAGAUAAGGAUCUUUGAGGUAAUUCUAAAAUUCAACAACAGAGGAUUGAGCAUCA` has a bound/input enrichment of 0.785 ratio.
With `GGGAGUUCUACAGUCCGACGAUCCCUACAAUAAUGAAGCCCGACAGGAAUUUUUUUAUUUUCCAUUUCCCCUCUAGGCAUCCUUCGUCUCUUUUCCCCAGGGGCAUCACUCAGAGCGUGCGUGCGUGCGUGUGCACAUGUUUCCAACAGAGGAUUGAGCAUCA` the bound/input enrichment was 0.316 ratio.
`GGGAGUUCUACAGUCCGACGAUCUUUUUUUUUUUGCACAUGACAGUGUUUGUAUUGAGGAUCUUCCAAGGAAGAGGGGUGCUGUAGCAGUGGUGCCUGGGUACCUGGCCCUCCAGUGUCCCACCUCCUUCACCACCCCGCUUGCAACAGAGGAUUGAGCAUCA` has a bound/input enrichment of 0.243 ratio.
